Results pooled from the literature.
Compare with care: the assays were run in different laboratories. Numbers after ± are the reported error.
Target: Kappa-type opioid receptor (OPRK1, Homo sapiens, UniProt P41145)
UniProt P41145, sequence (whole entry, looked up): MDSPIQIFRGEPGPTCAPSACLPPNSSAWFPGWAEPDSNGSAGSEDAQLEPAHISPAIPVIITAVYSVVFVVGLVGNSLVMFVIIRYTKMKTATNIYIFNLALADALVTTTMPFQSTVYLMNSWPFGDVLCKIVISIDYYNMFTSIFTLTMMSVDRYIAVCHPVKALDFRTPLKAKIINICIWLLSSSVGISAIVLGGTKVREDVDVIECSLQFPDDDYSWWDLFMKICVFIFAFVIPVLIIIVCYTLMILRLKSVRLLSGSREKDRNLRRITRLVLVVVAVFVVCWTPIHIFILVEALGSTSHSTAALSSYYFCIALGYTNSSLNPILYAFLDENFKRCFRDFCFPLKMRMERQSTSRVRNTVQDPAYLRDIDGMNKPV

With Cc1cc(O)cc(C)c1CC(N)C(=O)NC1CCNc2ccc(CN3CCc4ccccc4C3)cc21 (stereo not drawn) the EC50 was 90 nM (GTPγS binding, agonist, radiometric; cell membranes).
Cc1cc(O)cc(C)c1CC(N)C(=O)NC1CCNc2c(Br)cc(Cc3ccccc3)cc21 (stereo not drawn) has an EC50 of 310 nM (GTPγS binding, agonist, radiometric; cell membranes).
Cc1cc(O)cc(C)c1CC(N)C(=O)NC1CCNc2ccc(Cc3ccoc3)cc21 (stereo not drawn) gave an EC50 of > 1000 nM (GTPγS binding, agonist, radiometric; cell membranes).
The IC50 of CC[C@H](C)[C@H](NC(=O)[C@@H](N)Cc1ccc(O)cc1)C(=O)N[C@@H](Cc1ccccc1)C(=O)N[C@@H](CC(N)=O)C(=O)N[C@@H](CC(C)C)C(=O)O is reported as 0.0287 ± 2.2e-14 nM ([3H]EKC binding displacement, whole-cell radioligand binding; DU-145; added: DADLE).
The EC50 of Cc1cc(O)cc(C)c1CC(N)C(=O)NC1CCNc2c(C)cc(Cc3ccccc3)cc21 (stereo not drawn) is reported as 760 nM (GTPγS binding, agonist, radiometric; cell membranes).
The EC50 of CC(C)[C@H]1CC[C@H](N2CC[C@@](C)(c3cccc(O)c3)[C@@H](C)C2)CC1 is reported as > 10000 nM (GTPγS binding, agonist, radiometric).
With CC(=O)N1CCC(NC(=O)C(N)Cc2c(C)cc(O)cc2C)c2cc(CN3CCc4ccccc4C3)ccc21 (stereo not drawn) the EC50 was 160 nM (GTPγS binding, agonist, radiometric; cell membranes).
Cc1cc(O)cc(C)c1CC(N)C(=O)NC1CCNc2c(F)cc(Cc3ccccc3)cc21 (stereo not drawn) has an EC50 of 370 nM (GTPγS binding, agonist, radiometric; cell membranes).
With CC(C)C[C@H](NC(=O)[C@H](Cc1ccc2ccccc2c1)NC(=O)CNC(=O)[C@H](NC(=O)[C@@H](N)Cc1ccc(O)cc1)[C@H](C)O)C(=O)N[C@@H](CO)C(N)=O the EC50 was > 1000 nM (GTPγS binding, agonist, radiometric; cell membranes).

Some of these lines once more:
Cc1cc(O)cc(C)c1CC(N)C(=O)NC1CCNc2c(F)cc(Cc3ccccc3)cc21 (stereo not drawn) has an EC50 of 370 nM (GTPγS binding, agonist, radiometric; cell membranes).
